Published values pooled from the literature.
Compare with care: the assays were run in different laboratories. Values joined by “and” are separate records of one study, mostly repeats; a detail may differ. ± marks the error that the study gave.
B1: UGT1A9 (Homo sapiens, UniProt O60656); chain GKLLVVPMDGSHWFTMRSVVEKLILRGHEVVVVMPEVSWQLGRSLNCTVKTYSTSYTLEDLDREFKAFAHAQWKAQVRSIYSLLMGSYNDIFDLFFSNCRSLFKDKKLVEYLKESSFDAVFLDPFDNCGLIVAKYFSLPSVVFARGILCHYLEEGAQCPAPLSYVPRILLGFSDAMTFKERVRNHIMHLEEHLLCHRFFKNALEIASEILQTPVTEYDLYSHTSIWLLRTDFVLDYPKPVMPNMIFIGGINCHQGKPLPMEFEAYINASGEHGIVVFSLGSMVSEIPEKKAMAIADALGKIPQTVLWRYTGTRPSNLANNTILVKWLPQNDLLGHPMTRAFITHAGSHGVYESICNGVPMVMMPLFGDQMDNAKRMETKGAGVTLNVLEMTSEDLENALKAVINDKSYKENIMRLSSLHKDRPVEPLDLAVFWVEFVMRHKGAPHLRPAAHDLTWYQYHSLDVIGFLLAVVLTVAFITFKCCAYGYRKCLGKKGRVKKAHKSKTH

FC(F)(F)c1ccc(CNc2ccc(Cc3c[nH]c4ncc(Cl)cc34)cn2)cn1 — AUC(0-4h) (human patients, plasma; oral, 1000 mg/day, steady state): 26100 ng·h/mL
O=C(O)C(F)(F)c1ccccc1Nc1c(Cl)cc(F)cc1Cl — remaining compound (human liver microsomes; 30 min, with: NADPH): 95 ± 5.1%
AAEDWCKKGDT — inhibition (peptide, human polyclonal IgM RF AGER; concentration not given, 5 µg/mL mAb II-481 coated, with: RF at 50% max binding concentration): 0%
B1 (UGT1A9) — Vmax (CC/C(=C(\c1ccc(O)cc1)c1ccc(OCCNC)cc1)c1ccccc1; steady-state kinetics; pH 7.4, 37 °C): 0.00209 µmol/min/mg
O=C1N=C(N2CCOCC2)CN1c1ccc(Cl)cc1 — Cmax (beagle dog, female, plasma; oral, 30 mg/kg, tablets, fasted): 18400 ng/mL
CS/C(S)=N/CCCC[S+](C)[O-] (racemic) — mRNA fold change (RT-PCR, item: Cyp2b15; rat, liver; oral gavage, 200 mg/kg, dosed for four days; baseline: vehicle): 2.05
CCCC[C@@H]1NC(=O)[C@@H](NC(=O)[C@H](CCC(=O)O)NC(=O)CNC(=O)CN2CCN(CC(=O)O)CCN(CC(=O)O)CCN(CC(=O)O)CC2)CCCCNC(=O)C[C@@H](C(N)=O)NC(=O)[C@H](C(C)C)NC(=O)[C@@H]2CCCN2C(=O)[C@H](CCCNC(=N)N)NC(=O)CNC(=O)[C@H](Cc2c[nH]c3ccccc23)NC(=O)[C@H](CCCNC(=N)N)NC(=O)[C@@H](Cc2ccccc2)NC(=O)[C@H](Cc2c[nH]cn2)NC(=O)[C@H](CCC(=O)O)NC1=O [indium-111 labelled] — tissue uptake (C57 mice, B16/F10 lung metastatic melanoma, blood; intravenous, 0.037 MBq, 24 h): 0.03 ± 0.03 %ID/g
CC[C@H](C)[C@H](NC(=O)[C@H](CC(C)C)NC(=O)[C@H](Cc1c[nH]c2ccccc12)NC(=O)[C@H](C)NC(=O)[C@@H](NC(=O)[C@H](Cc1ccccc1)NC(=O)[C@H](CC(=O)O)NC(=O)[C@H](CCCNC(=N)N)NC(=O)[C@H](C)NC(=O)[C@H](C)NC(=O)[C@H](CC(C)C)NC(=O)[C@H](C)NC(=O)[C@H](CC(=O)O)NC(=O)[C@H](CC(C)C)NC(=O)[C@@H](NC(=O)[C@@H](NC(=O)[C@H](C)NC(=O)[C@H](CC(C)C)NC(=O)[C@H](CCC(=O)O)NC(=O)[C@H](CO)NC(=O)[C@H](CO)NC(=O)[C@H](Cc1ccccc1)NC(=O)[C@@H](NC(=O)CNC(=O)[C@H](CCC(=O)O)NC(=O)CNC(=O)[C@@H](N)Cc1cnc[nH]1)[C@@H](C)O)[C@@H](C)O)[C@@H](C)CC)[C@@H](C)CC)C(=O)N[C@@H](C)C(=O)N[C@H](C(=O)N[C@@H](CCCCN)C(=O)N[C@H](C(=O)N[C@H](C(=O)N[C@@H](CC(=O)O)C(=O)N[C@@H](CCCCN)C(=O)N[C@@H](CCCCN)C(=O)N[C@@H](CCCCN)C(=O)N[C@@H](CCCCN)C(=O)N[C@@H](CCCCN)C(=O)N[C@@H](CCCCN)C(N)=O)[C@@H](C)O)[C@@H](C)CC)[C@@H](C)O — terminal half-life (healthy human subjects, plasma; subcutaneous, 5 mg once weekly, day 36 after 6 doses, steady state, mean): 3.8 h
Cc1nc(Nc2ncc(C(=O)Nc3c(C)cccc3Cl)s2)cc(N2CCN(CCO)CC2)n1 — concentration (C57BL/6 mouse, male, urinary bladder; oral, 10 mg/kg, 5 min, undetectable): < 10 ng/mL
Cc1cc(Nc2ncc(Cl)c(Nc3ccccc3S(=O)(=O)C(C)C)n2)c(OC(C)C)cc1C1CCNCC1 — Css,min (item: unbound drug; human, plasma; oral, 750 mg/day): 20 nM and 14 nM
CNC(=O)c1ccc(-c2cnc3ncc(Cc4ccc5ncccc5c4)n3n2)cc1F — half-life (mean) (human, moderate hepatic impairment (Child-Pugh B), plasma; oral, 200 mg single dose): 7.62 h
Oc1ccc(/C=C/c2ccc3cc4ccccc4cc3c2)cc1O — linear absorbance range (water; aggregation above range): ≤ 5 µM
acyl ghrelin (human) — brain/serum ratio (mouse, wild type, thalamus; intravenous, 10 min): 6.17 µL/g
C[C@@H](Cn1ccc(-c2ccc(C#N)c(Cl)c2)n1)NC(=O)c1cc([C@@H](C)O)[nH]n1 — effective half-life (human; oral, 600 mg twice daily, with food): 5.08 h
O=C(CCCCCCC(=O)Nc1ccccc1)NO — AUC(0-7 h) (patients, serum; oral, 1000 mg, cycle 1, with: flavopiridol): 40.2 µM·h
CCCCCCCCCCCCCCCCCCOP(=O)([O-])OC1CC[N+](C)(C)CC1 — Tmax (rhesus monkey, male, cerebrospinal fluid; oral, 7 mg/kg, single dose, mean of 3): ~178 h
CC(=O)N[C@@H](CCCNC(=N)N)C(=O)N[C@H](C(=O)N[C@@H](CC(=O)O)C(=O)N[C@H](C(=O)N[C@@H](CCCNC(=N)N)C(=O)N[C@H](C(=O)N[C@@H](CC(=O)O)C(=O)N[C@H](C(N)=O)C(C)C)C(C)C)C(C)C)C(C)C — viscosity (rotational rheometry; 1% w/v aqueous solution; shear rate range 1-1000 s^-1): 458 ± 20.9 Pa·s
CC(Cl)(Cl)C(=O)OC1(N=O)CCOCC1 — decomposition rate fold increase (PBS, 3% DMF; pH 7.4, with: porcine liver esterase; baseline: with esterase over buffer): 5 fold
CCCOc1ccc([C@H]2CNC(=O)N2c2ccc3[nH]cnc3c2)cc1 — apparent terminal half-life (human volunteers fasted, plasma; oral solution, 50 mg single dose, day 1, geometric mean): 2.62 h
rnpA F107W (Bacillus subtilis) — pKa (NMR, item: His3; 25 °C, Na2SO4 20 mM): 6.31
O=C(Cc1cccc(OC(F)(F)F)c1)Nc1ccc(CCCCc2nnc(NC(=O)Cc3ccccn3)s2)nn1 — Cmin (human; oral, 600 mg twice daily, fed, steady state, cycle 1 day 15, median): 348 ng/mL
C=CC(=O)Nc1cc(Nc2ncc(C(=O)OC(C)C)c(-c3cn(C)c4ccccc34)n2)c(OC)cc1N(C)CCN(C)C — terminal half-life (human, fasted; oral, 120 mg single dose, geometric mean): 18.3 h
CCCC[C@H](NC(C)=O)C(=O)N[C@H]1CCC(=O)NC[C@@H](C(=O)N[C@@H](Cc2c[nH]c3ccccc23)C(N)=O)NC(=O)[C@H](CCCNC(=N)N)NC(=O)[C@@H](Cc2ccccc2)NC(=O)[C@H](Cc2c[nH]cn2)NC1=O — AUC(0-inf), geometric mean (healthy volunteers, both sexes, plasma; subcutaneous, 3.0 mg single dose): 157 ng·h/mL
Cn1c(-c2ccc(C(N)=O)cc2F)nnc1C(C)(C)Oc1c(F)cc(Cl)cc1F — AUC(0-inf) (young non-Japanese subjects, plasma; oral, 2 mg single dose, day 1, mean): 48 ng·h/mL
GAGUUGAGUUGAGUUGAGUUGAGUUGAGUUGAGUUGAGUUGAGUUGAGUUGAGUU (ssRNA; single strand) — Kd (mtrB full length assumed T30N (Bacillus subtilis, UniProt P19466); filter binding; with: L-tryptophan 1 mM): 70 ± 7 nM
Nc1cc(F)ccc1NC(=O)c1ccc(CNC(=O)/C=C/c2cccnc2)cc1 — renal clearance (Japanese patients, urine; oral, 30 mg twice weekly, cycle 1 day 25): 28.5 mL/min
COC(=O)c1ccc2c(c1)NC(=O)/C2=C(\Nc1ccc(N(C)C(=O)CN2CCN(C)CC2)cc1)c1ccccc1 — AUC(0-tz) (human, Child-Pugh B hepatic impairment, plasma; oral, 100 mg, single dose, fed; adjusted geometric mean): 652 ng·h/mL
[2H]C([2H])([2H])Oc1cc2c(cc1OC([2H])([2H])[2H])C1CC(=O)C(CC(C)C)CN1CC2 (centres unmarked) — dose-normalized Cmax (item: deuterated β-HTBZ; healthy human volunteers, plasma; oral, 6 mg single dose, standard meal): 0.9 ng/mL
CC(C)NC[C@@H](C(=O)N1CCN(c2ncnc3c2[C@H](C)C[C@H]3O)CC1)c1ccc(Cl)cc1 — apparent volume of distribution (human, Healthy hepatic function, plasma; oral, 100 mg single dose, NCI classification, geometric mean): 21300 L
CC(C)C[C@H]1C(=O)N2CCC[C@H]2[C@]2(O)O[C@](NC(=O)[C@@H]3C=C4c5cccc6[nH]c(Br)c(c56)C[C@H]4N(C)C3)(C(C)C)C(=O)N12 — Vss (male Sprague-Dawley rats, plasma; intravenous, 0.1 mg/kg, with: DAL 1.7 mg/kg plus HAL 0.7 mg/kg): 0.106 ± 0.01 L/kg
CC(=O)O[C@@]12CO[C@@H]1C[C@H](O)[C@@]1(C)C(=O)[C@H](O)C3=C(C)[C@@H](OC(=O)[C@H](O)[C@@H](NC(=O)OC(C)(C)C)c4ccccc4)C[C@@](O)([C@@H](OC(=O)c4ccccc4)[C@H]21)C3(C)C — C0 (female Sprague-Dawley rat, plasma; intravenous, 5 mg/kg): 123 ng/mL
C#Cc1cccc(Nc2ncnc3cc(OCCOC)c(OCCOC)cc23)c1 — Cmin (human, plasma; oral, 150 mg once daily, steady state monotherapy): 1000 ng/mL
CC(=O)N[C@H](CSSC[C@H](N)C(=O)O)C(=O)N[C@H](C)C(=O)N[C@H](CCCNC(=N)N)C(=O)N[C@H](CCCNC(=N)N)C(=O)N[C@H](CCCNC(=N)N)C(=O)N[C@H](C)C(=O)N[C@H](CCCNC(=N)N)C(N)=O — hemodialysis elimination half-life (in vitro hemodialysis; bovine blood; concentration not given): ~0.167 h
Cc1cc(C)c(C#N)c(SCC(=O)c2ccccc2)n1 — microsomal CLint (metabolic stability; human, liver microsomes; 0.5 µM, pH 7.4): 735 µL/min/mg
RDGAWFA — inhibition (peptide, human polyclonal IgM RF WEAK; concentration not given, 5 µg/mL mAb II-481 coated, with: RF at 50% max binding concentration): 4%
C[C@]12CC[C@@H]3c4ccc(O)cc4CC[C@H]3[C@@H]1C[C@@H](O)[C@@H]2O — median serum concentration (GC-MS; breast cancer women on NSAI, serum; vaginal, 0.03 mg, 3 h, day 0): 0.0838 ng/mL
CC(C)=CCC/C(C)=C/CC/C(C)=C/COP(=O)(O)OP(=O)(O)OCc1ccccc1[N+](=O)[O-] — uncaging half-life (4 °C, irradiation 350 nm): 3.6 min
COc1cc(CNC(=O)CCCCC=CC(C)C)ccc1O — moderate pain-producing concentration (eye-wiping; C57BL/6 mice, both sexes; ocular instillation, 1 min): 0.041 mg/mL

Repeated from above:
C#Cc1cccc(Nc2ncnc3cc(OCCOC)c(OCCOC)cc23)c1 — Cmin (human, plasma; oral, 150 mg once daily, steady state monotherapy): 1000 ng/mL
CC(=O)N[C@@H](CCCNC(=N)N)C(=O)N[C@H](C(=O)N[C@@H](CC(=O)O)C(=O)N[C@H](C(=O)N[C@@H](CCCNC(=N)N)C(=O)N[C@H](C(=O)N[C@@H](CC(=O)O)C(=O)N[C@H](C(N)=O)C(C)C)C(C)C)C(C)C)C(C)C — viscosity (rotational rheometry; 1% w/v aqueous solution; shear rate range 1-1000 s^-1): 458 ± 20.9 Pa·s
CC(=O)N[C@H](CSSC[C@H](N)C(=O)O)C(=O)N[C@H](C)C(=O)N[C@H](CCCNC(=N)N)C(=O)N[C@H](CCCNC(=N)N)C(=O)N[C@H](CCCNC(=N)N)C(=O)N[C@H](C)C(=O)N[C@H](CCCNC(=N)N)C(N)=O — hemodialysis elimination half-life (in vitro hemodialysis; bovine blood; concentration not given): ~0.167 h
B1 (UGT1A9) — Vmax (CC/C(=C(\c1ccc(O)cc1)c1ccc(OCCNC)cc1)c1ccccc1; steady-state kinetics; pH 7.4, 37 °C): 0.00209 µmol/min/mg
O=C1N=C(N2CCOCC2)CN1c1ccc(Cl)cc1 — Cmax (beagle dog, female, plasma; oral, 30 mg/kg, tablets, fasted): 18400 ng/mL
